Experimental data from different studies.
Compare with care: the assays were run in different laboratories. Values joined by “and” are separate records of one study, mostly repeats; a detail may differ.
Target: Tyrosine-protein kinase ZAP-70 (ZAP70, Homo sapiens, UniProt P43403)

Compound	assay	setting	how to read	endpoint	result
COc1c(Cl)cccc1Nc1c(-c2ccncc2C#C[C@@]2(C)CCCN2C(=O)/C=C/CN(C)C)[nH]c2c1C(=O)NCC2	binding, competition with immobilised ligand	3 µM		remaining binding	72%
NC(=O)C[C@H]1CCc2sc3ncnc(O[C@H]4CC[C@H](N5CCOCC5)CC4)c3c21	enzyme activity, inhibitor	10 µM		inhibition	0%
C=CC(=O)Nc1cccc(-c2cnc3[nH]cc(C(=O)NC(C)(C)C)c3n2)c1	kinase activity	0.1 µM		inhibition	32% and 24%
C=CC(=O)N1CCc2ccc(-n3c(=O)ccc4cnc5ccc(-c6cnn(C)c6)cc5c43)cc21	KINOMEscan	1 µM	reference: DMSO control	remaining binding	90%
Nc1ncc(-c2cc(-c3cnn(CC(F)(F)F)c3)ncc2F)nc1C(=O)NC1CNCC(F)C1 (stereo not shown)	enzyme activity	1 µM	reference: DMSO control	remaining activity	107%
CC(C)=CC1OC(C)(C)C2C=C3C(=O)C(Cl)=CC(O)C3C3C(O)C4OC4C(=O)C132 (stereo not shown)	cell-free assay, competition with immobilised ligand	10 µM		remaining binding	61%
Cc1ccc(-c2c(/C=C(\C#N)C(=O)NC(C)C)n(CCCO)c3ncnc(N)c23)cc1	cell-free assay, competition with immobilised ligand	1 µM		remaining binding	67%
Cc1cccc(O[C@H]2CCC[C@@H](C(C)CNCc3ccncc3)C2)c1 (relative stereo)	enzyme activity, inhibitor	1 µM		inhibition	4%
CNC1C[S+]2CC[S+]3CC[S+](C1)[Ru-4]321([N]=C=S)[n]2c3ccc(OC)cc3c3c4c(c5cc(F)c[n+]1c5c32)C(=O)NC4=O (stereo not shown)	KinomeScan	0.1 µM	reference: untreated	remaining binding	100%
CNC(=O)C1CCN(c2cc(C)c(F)cc2NC(=O)c2ccc(-c3cc(O)ccc3C)c(C)c2)CC1	binding, competition with immobilised ligand	1 µM		remaining binding	97%
CCN1CCN(Cc2ccc(C(=O)Nc3ccc(C)c(NCc4cnc5[nH]ccc5c4OC)c3)cc2C(F)(F)F)CC1	binding, competition with immobilised ligand	1 µM		remaining binding	45%
CCn1cc(C(=O)O)c(=O)c2c(N)c(F)c(NC3CCCCC3)cc21	kinase activity	0.1 µM, added: ATP at Km		inhibition	3.5%
CC(=O)N1c2ccc(-c3ccc(CNC(=O)c4cn5cc(-c6cnc(N)nc6)nc(N6CCOCC6)c5n4)cc3)cc2CC[C@@H]1C	KINOMEscan	10 µM		remaining binding	57%
COc1ccc(NC(=O)Nc2ccc3c(c2)C(=O)N(C(C)CO)CC(C)C(CN(C)Cc2ccc4c(c2)OCO4)O3)cc1 (stereo not shown)	kinase activity, KinaseProfiler	0.03 µM, species human	reference: control	remaining activity	102%
Nc1ncc2c(n1)-c1c([nH]c3ccc(C4=CCOCC4)cc13)CCC2	binding, competition with immobilised ligand	1 µM		remaining binding	100%
COc1cc(Nc2nccc(-c3cnn4nc(OC)ccc34)n2)cc(C(F)(F)F)c1	binding, competition with immobilised ligand	1 µM		remaining binding	98%
CN1CCN(Cc2ccc(NC(=O)c3cccc(C#Cc4cnc(N)c5ncccc45)c3)cc2C(F)(F)F)CC1	cell-free assay, competition with immobilised ligand	0.5 µM		remaining binding	61%
CCN1CCN(Cc2ccc(NC(=O)c3ccc(C)c(NC(=O)c4cncc(-c5cnn(C)c5)c4)c3)cc2C(F)(F)F)CC1	binding, competition with immobilised ligand	1 µM		remaining binding	100%
O=C(Cc1ccc(OCc2ccccc2)cc1)NC1(C(=O)O)CCN(C(=O)c2ccc(-c3cccc(Cl)c3)cc2)CC1	enzyme activity, inhibitor	10 µM		activity vs control	114%

Some of these lines once more:
Compound	assay	setting	how to read	endpoint	result
Cc1cccc(O[C@H]2CCC[C@@H](C(C)CNCc3ccncc3)C2)c1 (relative stereo)	enzyme activity, inhibitor	1 µM		inhibition	4%
